Measured values from different studies.
Compare with care: the assays were run in different laboratories. ± marks the error that the study gave.
UniProt P06276, sequence (whole entry, looked up): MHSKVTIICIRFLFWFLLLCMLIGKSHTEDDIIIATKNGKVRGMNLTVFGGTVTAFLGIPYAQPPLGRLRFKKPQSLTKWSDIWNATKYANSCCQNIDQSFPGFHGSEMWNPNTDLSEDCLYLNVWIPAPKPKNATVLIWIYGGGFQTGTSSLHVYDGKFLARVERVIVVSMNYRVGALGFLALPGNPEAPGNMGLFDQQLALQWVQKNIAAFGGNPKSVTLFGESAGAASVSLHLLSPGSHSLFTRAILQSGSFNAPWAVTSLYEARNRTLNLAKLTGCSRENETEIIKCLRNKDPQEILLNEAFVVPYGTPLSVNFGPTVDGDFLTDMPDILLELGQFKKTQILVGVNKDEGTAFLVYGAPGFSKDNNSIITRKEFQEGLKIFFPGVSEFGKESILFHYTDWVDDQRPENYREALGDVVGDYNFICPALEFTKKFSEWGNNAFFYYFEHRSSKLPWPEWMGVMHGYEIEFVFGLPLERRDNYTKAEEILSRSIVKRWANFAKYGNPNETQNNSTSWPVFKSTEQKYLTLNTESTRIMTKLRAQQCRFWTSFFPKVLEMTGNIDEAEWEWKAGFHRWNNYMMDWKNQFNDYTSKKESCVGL
UniProt P42685, sequence (whole entry, looked up): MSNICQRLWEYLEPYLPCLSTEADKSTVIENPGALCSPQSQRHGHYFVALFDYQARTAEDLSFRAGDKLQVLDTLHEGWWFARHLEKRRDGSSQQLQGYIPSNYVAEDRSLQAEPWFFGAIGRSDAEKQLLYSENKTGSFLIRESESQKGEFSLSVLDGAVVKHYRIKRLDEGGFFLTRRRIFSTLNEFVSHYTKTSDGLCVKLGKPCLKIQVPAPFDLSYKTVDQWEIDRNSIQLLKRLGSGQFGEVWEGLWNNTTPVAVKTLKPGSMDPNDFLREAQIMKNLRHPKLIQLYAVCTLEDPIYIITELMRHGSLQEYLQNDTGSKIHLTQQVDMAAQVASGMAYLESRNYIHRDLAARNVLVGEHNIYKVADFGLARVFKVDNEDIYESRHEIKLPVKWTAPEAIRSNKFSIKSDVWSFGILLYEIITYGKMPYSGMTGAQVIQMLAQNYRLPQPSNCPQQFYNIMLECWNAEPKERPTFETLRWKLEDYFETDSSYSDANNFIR

| SMILES | target or system | test | test system | setting | how to read | endpoint | result |
| --- | --- | --- | --- | --- | --- | --- | --- |
| CCN(CC)CCOCCOC(=O)C1(c2ccccc2)CCCC1 | Plasmodium falciparum |  | HB3 |  |  | IC50 | 10 µM |
| CN[C@H](CC(C)C)C(=O)N[C@H]1C(=O)N[C@@H](CC(N)=O)C(=O)N[C@H]2C(=O)N[C@H]3C(=O)N[C@H](C(=O)N[C@H](C(=O)O)c4cc(O)cc(O)c4-c4cc3ccc4O)[C@H](O)c3ccc(c(Cl)c3)Oc3cc2cc(c3O[C@@H]2O[C@H](CO)[C@@H](O)[C@H](O)[C@H]2O[C@H]2C[C@](C)(N)[C@H](O)[C@H](C)O2)Oc2ccc(cc2Cl)[C@H]1O |  | population PK model | human neonates | dose not given |  | volume of distribution, typical value | 0.905 L |
| CN1CC[C@@H](c2c(O)cc(O)c3c(=O)cc(-c4ccc(C(F)(F)F)cc4Cl)oc23)[C@@H]1CO |  | measured: Thrombocytopenia | relapsed or refractory haematological malignancies | oral, dose not given, grade 3 to 4 |  | adverse event incidence | 7.5% |
| O=C([O-])CN1CCN(CC(=O)[O-])CCN(CC(=O)NCC2CCC(C(=O)N[C@@H](Cc3ccc4ccccc4c3)C(=O)NCCCC[C@H](NC(=O)N[C@@H](CCC(=O)O)C(=O)O)C(=O)O)CC2)CCN(CC(=O)[O-])CC1.[177Lu+3] (stereo partly drawn) |  |  | BALB/c mouse, blood | intravenous |  | elimination half-life | 0.404 h |
| O=S(=O)(Nc1ccccc1)c1ccc(NC(=S)Nc2ccccc2)cc1 |  |  | female mouse, blood | oral, 80 mg/kg daily, 14 days |  | haematocrit | 42% |
| CO[C@H]1C[C@@H]2CC[C@@H](C)[C@@](O)(O2)C(=O)C(=O)N2CCCC[C@H]2C(=O)O[C@H]([C@H](C)C[C@@H]2CC[C@@H](OC(=O)NCCOCCOCCOCCOCCOCCOCCOCCOCCC(=O)N3CCc4cc(Cn5nc(-c6ccc7oc(N)nc7c6)c6c(N)ncnc65)ccc4C3)[C@H](OC)C2)C[C@@H](O)[C@H](C)/C=C(\C)[C@@H](O)[C@@H](OC)C(=O)[C@H](C)C[C@H](C)/C=C/C=C/C=C/1C |  | phase 1 dose escalation | advanced solid tumour patients | intravenous, 6 mg weekly, any grade |  | deaths due to TEAEs | 0% |
| Clc1cc(Cl)c(-c2cc(Cl)c(Cl)cc2Cl)cc1Cl |  |  | fresh water | 20 °C, S30-1 sampler, 30 µm |  | log K(PDMS-water) | 6.39 ± 0.06 |
| CCN(CCO)CCCC(C)Nc1ccnc2cc(Cl)ccc12 (stereo not drawn) |  | measured: Nausea grade 2 | newly diagnosed glioblastoma patients | oral, 400 mg/dose, with radiotherapy and temozolomide |  | patients with adverse event | 33% |
| CC(C)C[C@@H]1NC(=O)CNC(=O)[C@H](CC(N)=O)NC(=O)[C@H](CCCNC(=N)N)NC(=O)[C@H]([C@@H](C)O)NC(=O)[C@@H]2CSSC[C@@H]3NC(=O)[C@H]([C@@H](C)O)NC(=O)[C@H](CCCCN)NC(=O)CNC(=O)[C@H](C(C)C)NC(=O)[C@@H]4CSSC[C@H](NC(=O)[C@H]([C@@H](C)O)NC(=O)[C@H](CSSC[C@H](NC(=O)[C@H](C(C)C)NC(=O)[C@@H]5CCCN5C1=O)C(=O)NCC(=O)N[C@@H](CCC(=O)O)C(=O)N[C@@H]([C@@H](C)O)C(=O)N4)NC(=O)CNC(=O)[C@@H]1CCCN1C(=O)[C@H]([C@@H](C)O)NC(=O)[C@H](CC(N)=O)NC3=O)C(=O)N[C@@H](CO)C(=O)N[C@@H](Cc1c[nH]c3ccccc13)C(=O)N1CCC[C@H]1C(=O)N[C@@H](C(C)C)C(=O)N2 |  | HPLC | water | 180 µM, 14 days, 37 °C, deamidation stability |  | remaining peptide | 99.7 ± 0.4% |
| Cc1cc2ncn(-c3ccc(OC(C)(C)C)cc3)c2cc1-c1ccc(OC(C)(C)O)cc1 |  |  |  | pH 7.4 |  | aqueous solubility | > 100 µM |
| Clc1ccc(-c2cc(Cl)c(Cl)c(Cl)c2)cc1Cl |  |  | fresh water | 20 °C |  | log K(PDMS-water) | 5.98 ± 0.04 |
| CCN1[C@@H](C(=O)NC23CCC(C(=O)O)(CC2)CC3)[C@H](c2cccc(Cl)c2F)[C@]2(C(=O)Nc3cc(Cl)ccc32)C12CCCCC2 |  |  | patients with advanced solid tumours | oral, 100 mg |  | Headache incidence | 9.1% |
| C[C@H]1CN(c2n[nH]c3nc(N[C@H]4CC[C@H](NS(=O)(=O)CCC(F)(F)F)CC4)ncc23)CCO1 | Putative ribosomal protein uL10-like (RPLP0P6, Homo sapiens, UniProt Q8NHW5) | competitor, Kinobeads competition, measured: RPLP0-like | human cell extract | 0.032 µM | reference: vehicle | relative abundance | 0.98 |
| CC[C@H](C)[C@H](NC(=O)[C@H](Cc1ccc(O)cc1)NC(=O)[C@@H]1CCCN1C(=O)[C@H](CCCNC(=N)N)NC(=O)[C@@H](N)CCCNC(=N)NC(=O)NCCOCCOCCNC(=O)CCCCCN1\C(=C/C=C/C=C/C2=[N+](CCCCS(=O)(=O)[O-])c3ccccc3C2(C)C)C(C)(C)c2ccccc21)C(=O)N[C@@H](CC(C)C)C(=O)O |  |  | PBS | pH 7.4 | reference: cresyl violet perchlorate | fluorescence quantum yield | 28% |
| COc1ccc(N2C(=O)N(c3c(C)cccc3Cl)Cc3cnc(Nc4ccc(C5CCN(C)CC5)cc4OC)nc32)nc1 | FRK (Homo sapiens, UniProt P42685) | kinase activity, inhibitor |  | 0.5 µM, PTK5 |  | inhibition | 99% |
| CCN1CCN(Cc2ccc(Nc3ncc(F)c(-c4cc(F)c5nc6n(c5c4)[C@H](C)CCC6)n3)nc2)CC1 |  |  | advanced solid tumour patients | dose not given, Phase Ia monotherapy |  | Anemia incidence, grade ≥3 | 12.5% |
| C[C@@H]1CC[C@H]2[C@@H](C)C(=O)O[C@@H]3O[C@@]4(C)CC[C@@H]1[C@]32OO4 | Plasmodium falciparum | cell growth | Dd2 |  |  | IC50 | 0.033 µM |

| SMILES | target or system | test | test system | setting | how to read | endpoint | result |
| --- | --- | --- | --- | --- | --- | --- | --- |
| CC(C)C[C@@H]1NC(=O)CNC(=O)[C@H](CC(N)=O)NC(=O)[C@H](CCCNC(=N)N)NC(=O)[C@H]([C@@H](C)O)NC(=O)[C@@H]2CSSC[C@@H]3NC(=O)[C@H]([C@@H](C)O)NC(=O)CNC(=O)CNC(=O)[C@H](C(C)C)NC(=O)[C@@H]4CSSC[C@H](NC(=O)[C@H]([C@@H](C)O)NC(=O)[C@H](CSSC[C@H](NC(=O)[C@H](C(C)C)NC(=O)[C@@H]5CCCN5C1=O)C(=O)NCC(=O)N[C@@H](CCC(=O)O)C(=O)N[C@@H]([C@@H](C)O)C(=O)N4)NC(=O)CNC(=O)[C@@H]1CCCN1C(=O)[C@H](CCCCN)NC(=O)[C@H](CC(N)=O)NC3=O)C(=O)N[C@@H](CO)C(=O)N[C@@H](Cc1c[nH]c3ccccc13)C(=O)N1CCC[C@H]1C(=O)N[C@@H](C(C)C)C(=O)N2 |  | HPLC | ammonium bicarbonate | 180 µM, 14 days, pH 9.0, 25 °C, deamidation stability |  | remaining peptide | 91.1 ± 0.6% |
| COc1ccc2nc3cc(Cl)ccc3c(Nc3cc(CN4CCCC4)c(O)c(CN4CCCC4)c3)c2n1 |  |  | mouse, blood | intraperitoneal, 57 mg/kg |  | lymphocytes | 57.9% |
| CC(C)[C@H](C(=O)O[C@H](C#N)c1cccc(Oc2ccccc2)c1)c1ccc(Cl)cc1 |  | measured: CYP2C9 | human, age 1 year |  |  | enzyme contribution to clearance | 20.1% |
| COc1ncccc1-c1cnn2ccc(N3CCN(C(=O)OC(C)C)CC3)nc12 |  |  | rat, rotarod test, plasma | 10 mg/kg, 180 min |  | drug concentration | 860 nM |
| [O-][S+]1CCc2nc(N3CCC(c4ncc(Cl)cn4)CC3)nc(NC3(CO)CCC3)c21 (stereo not drawn) |  | measured: nervous system disorders | healthy male humans | 48 mg single dose |  | adverse event incidence | 50% |
| O=C(Nc1ccccc1)C1CCN(C(=O)Oc2cccnc2)CC1 |  | adverse event reporting | healthy women | oral, 60 mg |  | subjects with Syncope adverse event | 0% |
| C[C@]1(CO)Cc2ncn(-c3ccc(C#N)c(Cl)c3)c2C(=O)O1 |  |  | human | 20 mg multiple doses, fasted |  | subjects with any TEAE | 33.3% |
| CC(C)C[C@H](NC(=O)[C@H](Cc1ccccc1)NC(=O)[C@H](Cc1ccccc1)NC(=O)Cc1ccc(-c2ccccc2)cc1)C(=O)N[C@@H](CCCCN)C(=O)N[C@@H](CCCNC(=N)N)C(=O)N[C@H](C(=O)N[C@@H](Cc1c[nH]c2ccccc12)C(=O)N[C@@H](CCCCN)C(=O)N[C@@H](CCCNC(=N)N)C(=O)O)C(C)C |  |  | rat liver microsomes |  |  | hepatic clearance | 49.6 mL/min/kg |
| COc1cc2c(cc1OC)CN(CCc1ccc(NC(=O)c3cccc4c(=O)c5cccc(OC)c5[nH]c34)cc1)CC2 |  |  | CD-1 mouse, male, plasma | intraperitoneal, 0.3 mg/kg |  | Tmax | 2 h |
| COc1cc2c(Oc3ccc4[nH]c(C)cc4c3F)ccnc2cc1OCC1(N)CC1 |  |  | paediatric recurrent refractory sarcoma | 12 mg |  | grade 3 Tinnitus | 0% |
| COc1cc(Nc2ncc(F)c(Nc3ccc4c(n3)NC(=O)C(C)(C)O4)n2)cc(OC)c1OC | Cholinesterase (BCHE, Homo sapiens, UniProt P06276) |  |  | butyryl |  | IC50 | > 10 µM |
| CC(=O)N1CCC(C(=O)N2CCN3C(=O)c4cc(-c5ccccc5)ccc4NC(=O)C3C2)CC1 (stereo not drawn) | Salmonella typhimurium |  | TA100 | 1.58 µg/plate, without S9 |  | revertants per plate | 93.5 |
| Cc1ccc2c(c1)C(=O)C1(O)CCN(c3ccccc3)C1=N2 (stereo not drawn) |  |  | aqueous solution | 4 h, bright light exposure |  | parent remaining | 82.9% |
| COc1ncnn2ccc(-c3cnc4nc(C)n(Cc5nnc([C@@H](C)F)o5)c4c3)c12 |  |  | human patients | oral, dose not given, all-grade adverse drug reaction |  | incidence of Malaise | 21.4% |
| CCc1ccc(CC/C=C/c2ccc3c(c2)C(=O)CC3)cc1 |  |  | Sprague-Dawley rat, female | oral, 450 mg/kg/day, 14 days |  | Mononuclear percentage | 2.73% |
| C=C(C)[C@@H]1CCC(C)=C[C@H]1c1c(O)cc(CCCCC)cc1O |  |  | human | 750 mg, trial 17074, with: rifampicin 600 mg |  | AEs leading to withdrawal | 0% |

Some of these lines once more:
| SMILES | target or system | test | test system | setting | how to read | endpoint | result |
| --- | --- | --- | --- | --- | --- | --- | --- |
| CC(=O)N1CCC(C(=O)N2CCN3C(=O)c4cc(-c5ccccc5)ccc4NC(=O)C3C2)CC1 (stereo not drawn) | Salmonella typhimurium |  | TA100 | 1.58 µg/plate, without S9 |  | revertants per plate | 93.5 |
| CCc1ccc(CC/C=C/c2ccc3c(c2)C(=O)CC3)cc1 |  |  | Sprague-Dawley rat, female | oral, 450 mg/kg/day, 14 days |  | Mononuclear percentage | 2.73% |
| CC(C)[C@H](C(=O)O[C@H](C#N)c1cccc(Oc2ccccc2)c1)c1ccc(Cl)cc1 |  | measured: CYP2C9 | human, age 1 year |  |  | enzyme contribution to clearance | 20.1% |
